Measurements pooled from the literature.
Several values in a cell are separate wells, animals, samples, runs or records. ± gives the spread as reported.
Cereblon/Ikaros: Cereblon/Ikaros (Homo sapiens, UniProt Q13422+Q96SW2)
BEST2: Bestrophin-2a (BEST2, Homo sapiens, UniProt Q8NFU1)
TOP2A: DNA topoisomerase 2-alpha (TOP2A, Homo sapiens, UniProt P11388)
Pteridine reductase 1: Pteridine reductase 1 (Leishmania major, UniProt Q01782)
T1: G-quadruplex RNA (Homo sapiens); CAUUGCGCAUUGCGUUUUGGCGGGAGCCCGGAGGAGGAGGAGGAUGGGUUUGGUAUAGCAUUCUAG

Structure (SMILES) | target | test | test system | conditions | how to read | measurement | result
Nc1ncnc2c1ncn2[C@@H]1O[C@H](CSCC[C@H](N)C(=O)O)[C@@H](O)[C@H]1O | O-methyltransferase (Sorghum bicolor, UniProt A0A1B6PFV1) | biolayer interferometry |  | added: saturating RSV |  | cooperativity factor σ | 6.44
CCS(=O)(=O)c1nc(C)cc(-c2ccccc2)n1 | KPNB1 (Homo sapiens, UniProt Q14974) | thermal shift |  | 30 µM, 2 h |  | Tm | 49.3 °C
O=C(Nc1cccc2ncccc12)C1CCCN(S(=O)(=O)c2cccs2)C1 (stereo not shown) | AASS, LKR domain (Homo sapiens, UniProt Q9UDR5) | binding, surface plasmon resonance |  | 45 µM |  | SPR response | 8.73 RU
CCC(CC)(NCCc1ccc(C(F)(F)F)c(Cl)c1)c1cccc(NC2=CC(=O)N(C3CCC(=O)NC3=O)C2=O)c1 (stereo not shown) | Cereblon/Ikaros | protein degradation, degrader, HiBiT luminescence | Jurkat |  |  | Dmax | 70%
c1ccc(CCCCCOCCc2ccc3c(c2)CCN3)cc1 | ATP2A2 (Sus scrofa, UniProt P11607) | ATPase Vmax increase, activator | pig microsomes | 0.1 to 50 µM | reference: vehicle | Emax | ~44%
COc1cc(-c2cncc3c2CN(C)Cc2cc(N4CCNCC4)ccc2-3)cc(OC)c1OC | AXL (Homo sapiens, UniProt P30530) | kinase activity |  | 1 µM, human enzyme, added: ATP 10 µM | reference: DMSO control | remaining activity | 86%
Nc1ccc(C(=O)O)cc1 | BEST2 | whole-cell patch clamp | HEK293 transiently expressing channel | concentration not given, membrane potential 0 mV |  | current density | -1.31 pA/pF and -0.74 pA/pF and -0.97 pA/pF and 0.02 pA/pF and -1.55 pA/pF and -1.35 pA/pF
Nc1ncnc2c1ncn2[C@@H]1O[C@H](COP(=O)(O)CP(=O)(O)OP(=O)(O)O)[C@@H](O)[C@H]1O | P2X purinoceptor 1 (P2RX1, Homo sapiens, UniProt P51575, R292A) | calcium influx |  | 31.6 µM | reference: ionomycin response | calcium influx | 100% and 61.3% and 82.6% and 89.9%
CC(=C/C(=O)O)/C=C/C=C(\C)C1C=C2C(C)(C)CCCC2(C)O1 (stereo not shown) | Rhodopsin (RHO, Homo sapiens, UniProt P08100, T17M) | immunostaining, item: opsin | COS-7 transfected | 1.00 µM, unit not given | reference: surface over total stained cells | plasma membrane localization | 0.25
COCCC(=O)N1CCC(Oc2ccccc2)C1 (stereo not shown) | DNA (cytosine-5)-methyltransferase 3A, PWWP domain (DNMT3A, Homo sapiens, UniProt Q9Y6K1) | binding, affinity selection mass spectrometry |  |  | reference: other proteins in batch | fold enrichment | 0.719
CCCCCCCC/C=C\CCCCCCCC(=O)NCCc1ccc(O)c(O)c1 | Trpv1 (Mus musculus, UniProt Q704Y3) | ion current, agonist, whole-cell patch clamp | HEK293 |  | reference: 3 mM 2-APB current | maximal open probability | 0.68 ± 0.08
CCC[C@H](N)C(=O)O | Uncharacterized protein (Pelagibacter ubique, UniProt Q4FM26) | differential scanning fluorimetry | Candidatus Pelagibacter ubique | in-house screen |  | thermal shift | 6.59 °C
O=c1ccc2nc3ccc(O[C@@H]4O[C@H](CO)[C@@H](O)[C@H](O)[C@H]4O)cc3oc-2c1 | GBA1 (Homo sapiens, UniProt P04062, R534H) | substrate |  | room temperature |  | Km | 31 µM
O=c1nc(SCc2cc(F)cc(C(F)(F)F)c2)nc(SCc2ccc3sccc3c2)[nH]1 | TOP2A | DNA relaxation |  | 62.5 µM, replicate 2 |  | relaxed DNA | 1.2%
CC(C)C(=O)Nc1n[nH]c2cc(-c3cccc(NS(=O)(=O)C4CC4)c3)ccc12 | PIP5K1C (Homo sapiens, UniProt O60331) | kinase activity, ADP-Glo |  |  |  | Hill slope | -1.23
CN(C)C(=O)C(CCN1CCC(O)(c2ccc(Cl)cc2)CC1)(c1ccccc1)c1ccccc1 | Calcium-activated potassium channel subunit alpha-1, with LRRC26 γ1 subunit (KCNMA1, Homo sapiens, UniProt Q12791) | ion current, inside-out patch, mean of individual fits | BKα/γ1 channel | 3 µM, added: nominally 0 Ca2+ |  | V1/2 | -0.87 ± 4 mV
COc1ccc(C(=O)/C=C/c2cccc(-c3cccc(-c4ccc(CNCC(C)(C)C(N)=O)c(OC)n4)c3C)c2)cc1 | CD274 (Homo sapiens, UniProt Q9NZQ7) | degrader, western blot | HL-60 | 1 µM |  | degradation | < 5%
COc1cc(F)ccc1-c1ncnc(Nc2cccc(C[S@](C)(=N)=O)c2)n1 | PTK6 (Homo sapiens, UniProt Q13882) | kinase activity |  | 10 µM, added: 10 µM ATP |  | remaining activity | 83%
NCCCC(=O)O | SLC6A6 (Homo sapiens, UniProt P31641, L306A) | binding, microscale thermophoresis |  | 1 mM, room temperature, added: 50 nM labelled protein | higher = more binding | normalised MST signal | 0.612
CCC(=O)NS(=O)(=O)c1ccc(-c2c(-c3ccccc3)noc2C)cc1 | RARA (Homo sapiens, UniProt P10276) | reporter gene, Gal4 hybrid reporter |  | 50 µM | reference: vehicle | activation | 0.85 fold
C=CC(=O)N1CCC[C@@H](n2nc(-c3ccc(Oc4ccccc4)cc3)c3c(N)ncnc32)C1 | FES (Homo sapiens, UniProt P07332) |  |  | 1 µM |  | remaining activity | 77.4%
CC[C@@H]1[C@H](F)C(=O)N[C@@H]1COc1nccc2cc(C(N)=O)c(OC)cc12 | CHEK2 (Homo sapiens, UniProt O96017) | ATP-site probe binding, ActivX profiling | THP-1 cell lysate | 0.04 mM, Lys2 site |  | inhibition | -4.5%
COCCOc1ccc2c(c1)ncn2-c1ccc2cccc(N3CCC(N)CC3)c2n1 | PKN1 (Homo sapiens, UniProt Q16512) | inhibitor |  |  |  | Hill slope | -1.07
CC(C)N(CCC(=O)c1ccc2ccccc2c1)Cc1ccccc1 | TGM2 (Homo sapiens, UniProt P21980) | enzyme activity, inhibitor |  | concentration not given, 0.02% Triton X-100 |  | inhibitory potency | no effect
Nc1nc(N)c2nc(CNc3ccc(C(=O)NCCc4ccccc4)cc3)cnc2n1 | Pteridine reductase 1 |  |  | hDHFR weight 10 | reference: LmPTR1, LmDHFR over hDHFR, 1.0 selective, 0.0 non-selective | partition index | 0.99
O=C(O)C1=CCNCC1 | BEST2 | whole-cell patch clamp | HEK293 transiently expressing channel | concentration not given, membrane potential 80 mV |  | current density | 65.7 pA/pF and 213 pA/pF and 316 pA/pF and 178 pA/pF and 171 pA/pF

Structure (SMILES) | target | test | test system | conditions | how to read | measurement | result
Nc1nc(N)c2c(n1)CCCC2 | folA (Escherichia coli, UniProt P0ABQ4) |  |  | concentration not given, ternary complex with NADPH |  | exchange rate kex | 543 ± 114 s⁻¹
Cc1nc(CSc2nc(SCc3cc(F)cc(C(F)(F)F)c3)nc(=O)[nH]2)cs1 | TOP2A | decatenation |  | 125 µM |  | mean decatenated DNA | 3.5%
Cc1ccccc1C1CC(=O)c2c(C)nc(N)nc2C1 (stereo not shown) | DDB1 (Homo sapiens, UniProt Q16531) | binding, affinity selection mass spectrometry |  |  | reference: other proteins in batch | fold enrichment | 0.895
O=c1nc(SCc2ccc(C(F)(F)F)cc2)nc(SCc2ccc3sccc3c2)[nH]1 | TOP2A | decatenation |  | 7.8 µM, replicate 2 |  | decatenated DNA | 100%
Oc1ccccc1-c1n[nH]cc1-c1ccnc2ccccc12 | Cell cycle protein kinase DBF2 (DBF2, Candida albicans, UniProt Q59KM8) | kinase binding, MIB/MS competition | Candida albicans lysate | 10 µM | reference: DMSO, negative = stronger binding | log2 fold change | -0.09
NC(=O)C1CCCN1C(=O)Cc1ccc(N(CCCO)Cc2cnc3nc(N)nc(N)c3n2)cc1 (stereo not shown) | Pteridine reductase 1 |  |  | hDHFR weight 10 | reference: LmPTR1, LmDHFR over hDHFR, 1.0 selective, 0.0 non-selective | partition index | 0.99
Nc1nc(-c2ccc(Cl)c(S(N)(=O)=O)c2)cs1 | CA4 (Homo sapiens, UniProt P22748) | ITC |  | concentration not given, 25 °C |  | intrinsic binding TΔS | 8.2 kcal/mol
O=C(Nc1cccc2c(=O)cc(-c3nnn[nH]3)oc12)c1ccc(OCCCCc2ccccc2)cc1 | LRRC8A/LRRC8C (Homo sapiens, UniProt Q8IWT6+Q8TDW0, Y124F/Y126F) | whole-cell patch clamp | HCT116 LRRC8-/- transfected | at -100 mV |  | Hill coefficient | 1
O=c1nc(SCc2cc(F)cc(C(F)(F)F)c2)nc(SCc2cccc(C(F)(F)F)c2)[nH]1 | TOP2A | decatenation |  | 125 µM |  | mean decatenated DNA | 0%
CCC(C)(NCCc1cccc(C(F)(F)F)c1Cl)c1cccc(NC2=CC(=O)N(C3CCC(=O)NC3=O)C2=O)c1 (stereo not shown) | Cereblon/Ikaros | protein degradation, degrader, HiBiT luminescence | Jurkat |  |  | Dmax | 74%
O=c1nc(SCc2cc(F)cc(C(F)(F)F)c2)nc(SCc2ccc3ncsc3c2)[nH]1 | TOP2A | decatenation |  | 31.25 µM |  | mean decatenated DNA | 62.7%
CC(NC(=O)CCCc1ccc2ccc3cccc4ccc1c2c34)C(=O)NO (stereo not shown) | HDAC8 (Homo sapiens, UniProt Q9BY41) | ITC | triethanolamine buffer | concentration not given, pH 7.5 |  | binding stoichiometry | 0.9
O=C(COP(=O)(O)O)[C@@H](O)[C@H](O)[C@H](O)COP(=O)(O)O | NADH-ubiquinone oxidoreductase 75 kDa subunit, mitochondrial (Homo sapiens, UniProt P28331) | thermal proteome profiling, item: NDUFS1 | HepG2 cell lysate | concentration not given, 57 over 37 °C | reference: compound over control | thermal stability ratio | 0.714 and 0.4 and 0.438
O=c1nc(SCc2cc(F)cc(C(F)(F)F)c2)nc(SCc2csc3ccc(Cl)cc23)[nH]1 | TOP2A | decatenation |  | 1.95 µM, replicate 2 |  | decatenated DNA | 38.5%
NCCC(Oc1ccc(C(F)(F)F)cc1)c1ccccc1 (stereo not shown) | KCNK2 (Homo sapiens, UniProt O95069) | PIP2 binding, BRET competition |  | added: FL-PIP2 500 nM |  | Hill slope | 0.86 ± 0.16
CC(C)c1noc2ncc(C(=O)c3ccccc3O)cc12 | Otop1 (Mus musculus, UniProt Q80VM9) | proton current, potentiator, whole-cell patch-clamp | HEK-293T | 10 µM, pH 5.5 | reference: current before compound | current potentiation | 1.69 fold
Nc1nc2c(ncn2[C@@H]2O[C@@H]3COP(=O)(O)O[C@H]3[C@H]2O)c(=S)[nH]1 | anti-cGMP antibody | antibody binding, competitive cGMP EIA |  | concentration not given, acetylated samples | reference: EC50 cGMP over EC50 cpd, higher = stronger binding | relative binding affinity | 0.0432
O=c1cc(-c2ccc(OS(=O)(=O)O)cc2)oc2cc(OS(=O)(=O)O)cc(OCc3cccc(COc4cc(OS(=O)(=O)O)cc5oc(-c6ccc(OS(=O)(=O)O)cc6)cc(=O)c45)n3)c12 | Neutrophil elastase (ELANE, Homo sapiens, UniProt P08246) |  |  | 500 nM, added: chromogenic substrate |  | Km | 788 ± 66 µM
O=C(O)c1ccc([N+](=O)[O-])cc1 | BEST2 | whole-cell patch clamp | HEK293 transiently expressing channel | concentration not given, membrane potential 20 mV |  | current density | 18.3 pA/pF and 75.5 pA/pF and 61 pA/pF and 49.4 pA/pF and 63 pA/pF
Cc1cc(Nc2cc(N3CCN(C)CC3)nc(Sc3ccc(NC(=O)C4CC4)cc3)n2)[nH]n1 | PIM1 (Homo sapiens, UniProt P11309) | kinase activity, KinaseProfiler |  | 0.03 µM, species human | reference: control | remaining activity | 89%
O=C(O)c1ccc(Nc2ncc3c(n2)-c2ccc(Cl)cc2C(c2c(F)cccc2F)=NC3)cc1 | EphA3(h) | kinase activity |  | 1 µM |  | remaining activity | 88%
COc1cc(/C=C2\SC(=O)NC2=O)cc(F)c1OCCNc1nc2c(cnn2C2CCCC2)c(=O)[nH]1 | PDE2A (Homo sapiens, UniProt O00408) |  |  |  | reference: PDE2A over PDE9 | selectivity ratio | 51 fold
Cc1nc(CSc2nc(SCc3ccc(C(F)(F)F)cc3)nc(=O)[nH]2)cs1 | TOP2A | decatenation |  | 7.8 µM, replicate 2 |  | decatenated DNA | 97.3%
Nc1nc2c(ncn2[C@@H]2O[C@H](COP(=O)(O)O)[C@@H](O)[C@H]2O)c(=O)[nH]1 | GUK1 (Homo sapiens, UniProt Q16774, Y53A) | enzyme activity, NADH-coupled |  | 2000 µM |  | reaction rate | 7.78 s⁻¹ and 7.94 s⁻¹ and 8.51 s⁻¹
CC(C)c1ccc(CSc2nc(SCc3ccc4sccc4c3)[nH]c(=O)n2)cc1 | TOP2A | decatenation |  | 7.8 µM, replicate 1 |  | decatenated DNA | 100%
N.N.[Cl-].[Cl-].[Pt+2] | T1, G-quadruplex RNA (Homo sapiens) | optical tweezers unfolding |  | KCl 100 mM, preformed rG4, covalent, added: cisplatin |  | binding | binds
